# Results from different studies.
# Each line is one published result; not all experiments were run side by side. ± gives the spread as reported.
# Chain of UniProt P59537 (whole entry, looked up): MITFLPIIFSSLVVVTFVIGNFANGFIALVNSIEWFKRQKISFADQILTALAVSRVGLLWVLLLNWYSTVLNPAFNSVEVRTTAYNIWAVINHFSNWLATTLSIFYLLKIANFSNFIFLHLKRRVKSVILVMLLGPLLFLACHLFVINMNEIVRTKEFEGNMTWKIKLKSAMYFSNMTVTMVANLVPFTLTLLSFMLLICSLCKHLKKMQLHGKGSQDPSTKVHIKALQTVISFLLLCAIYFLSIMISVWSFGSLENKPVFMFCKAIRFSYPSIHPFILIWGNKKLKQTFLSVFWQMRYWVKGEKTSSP
SMILES,tested on,test,system,conditions,scale,endpoint,result
N=C(N)N[C@@H]1C[C@@H](C(=O)N[C@@H](Cc2ccc(O)cc2)C(N)=O)N(C(=O)CN(CCNC(=O)[C@H](CCCCNC(=O)c2cnccn2)NC(=O)[C@H](CCCCNC(=O)[C@H]2C[C@@H](N)CN2C(=O)CN(CCNC(=O)CN(CCN)C(=O)Cn2cnc3c(=O)[nH]c(N)nc32)C(=O)Cn2cnc3c(=O)[nH]c(N)nc32)NC(=O)[C@H]2C[C@@H](N)CN2C(=O)CN(CCNC(=O)CN(CCN)C(=O)Cn2cnc3c(=O)[nH]c(N)nc32)C(=O)Cn2cnc3c(=O)[nH]c(N)nc32)C(=O)Cn2cnc3c(=O)[nH]c(N)nc32)C1,HEK-293T,MTT,,48 h after transfection,,CC50,135000 nM
CC(C)C[C@H](NC(=O)[C@@H](NC(=O)[C@H](CCONC(=N)N)NC(=O)OCc1ccccc1)C1CCCCC1)[C@@H](O)CC(=O)NCCc1ccccc1,Plasmodium falciparum,"parasite growth, LDH",PMV T371P-HA CRISPR mutant,72 h,,EC50,823 nM
CC[C@H](C)[C@@H]1NC(=O)[C@H](C(C)C)NC(=O)[C@H](Cc2ccccc2)NC(=O)[C@H](Cc2ccccc2)NC(=O)[C@@H]2CCCN2C(=O)[C@@H]2CCCN2C(=O)[C@H]([C@@H](C)CC)NC(=O)[C@H](CC(C)C)NC(=O)[C@H](CC[S+](C)[O-])NC1=O (stereo partly shown),A-375,LDH release,,"500 µM, 48 h",relative to: DMSO,cytotoxicity,32%
CC[C@H](C)[C@@H]1NC(=O)[C@H](Cc2c[nH]c3ccccc23)NC(=O)[C@H](Cc2ccccc2)NC(=O)[C@H](Cc2ccccc2)NC(=O)[C@@H]2CCCN2C(=O)[C@H](CCSC)NC(=O)[C@H](CC(C)C)NC(=O)[C@H](CC[S+](C)[O-])NC1=O (stereo partly shown),"TAS2R43 (Homo sapiens, UniProt P59537)","calcium signal, agonist",,,,EC50,2920 nM
C=CCCCC(C)(NC(=O)[C@H](Cc1c[nH]cn1)NC(=O)[C@@H](N)CC(=O)O)C(=O)N[C@@H](CC(N)=O)C(=O)N1CCC[C@H]1C(=O)N[C@@H](CCC(N)=O)C(=O)N[C@H](C(=O)N[C@@H](CCCNC(=N)N)C(N)=O)[C@@H](C)CC (stereo partly shown),,,"Kunming mouse, heart, liver, lung, kidney","subcutaneous, 5000 mg/kg",,organ coefficients,no effect
CC(C)C[C@@H]1NC(=O)[C@H](CCCN)NC(=O)[C@H](C(C)C)NC(=O)[C@@H]2CCCN2C(=O)[C@@H](Cc2ccccc2)NC(=O)[C@H](CC(C)C)NC(=O)[C@H](CCCN)NC(=O)[C@H](C(C)C)NC(=O)[C@@H]2CCCN2C(=O)[C@@H](Cc2ccccc2)NC1=O,human erythrocytes,,,,,HC10,> 15.6 µg/mL
O=C(O)COc1ccc(Br)cc1C=NNC(=O)Cc1ccccc1 (mixture of isomers),,measured: ALP,"mouse, serum","oral, 100 mg/kg, 48 h, safety assessment",,serum enzyme activity,127 ± 11.8 IU/L
